# Experimental data of several laboratories.
# Every numbered part comes from another study and shows a few of its results, in no order.

# Set 1 — method: competition protein-binding microarray; form: double-stranded DNA, one strand shown; matrix: in vitro; concentration: 2 µM; added: Cbf1 competitor, 0.05 µM; direction: higher = stronger binding; all sequences stand within: … GTCTTGATTCGCTTGACGCTGCTG
# Target: Phosphate system positive regulatory protein PHO4, full length, GST-tagged (PHO4, Saccharomyces cerevisiae, UniProt P07270, residues 1-312)
# Setting: whole 60-bp probe, lowest competitor level
# Target sequence (chain): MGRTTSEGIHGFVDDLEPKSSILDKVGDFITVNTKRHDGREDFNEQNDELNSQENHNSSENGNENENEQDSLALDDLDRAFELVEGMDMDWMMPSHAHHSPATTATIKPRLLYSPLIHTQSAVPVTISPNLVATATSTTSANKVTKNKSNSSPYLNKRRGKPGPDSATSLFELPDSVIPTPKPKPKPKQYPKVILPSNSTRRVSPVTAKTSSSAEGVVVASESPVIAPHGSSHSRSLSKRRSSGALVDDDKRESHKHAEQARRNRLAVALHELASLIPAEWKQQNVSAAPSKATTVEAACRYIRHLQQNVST
Sequence,fluorescence intensity
TCCCTGTGGATCCATCACGTGTGGATTAGGAGCAAA,14000 a.u.
CTTTCCCGATCTTGAATGGTGGGTGTAGCACATTTG,4340 a.u.
CATTGGGTATACCATCACGTGTACTATCAAATAAAG,15000 a.u.
AAACAGGGCGGCGTTCCCGTGCGGAAGGTGGTCTGC,6260 a.u.
AAAGCGGTAATTTGACTAGTGGGTGCAGATATCTAT,4760 a.u.
TAAGCAAATGAACCGCACATGTAGGCCGCAAATCTT,7970 a.u.
TGCGCAACAACTTGCTTGGTGGGTGTATGTCTAGAA,3790 a.u.
GCACTAGTAGAATCGCACGTGTTGGGTTCCCCAAGT,18100 a.u.
GTCTTGTCTCATTGCTCAGTGGGTGTCCCCACTTCA,4150 a.u.
CTTGCAAACCCTTCACACGTGGACCATGACGAATTT,17900 a.u.
CGTCCTAGTGATTGCTGCGTGGGTGCCATGAGGAAG,10200 a.u.
GTCTTGTCTCATTGTGCAGTGGGTGTCCCCACTTCA,5520 a.u.
CATACCCAACCTTGTCGAGTGGGTGAAGATATTTGT,3740 a.u.
TGCAGCATCCAGCTTCCCGTGTATCCATACCACCCT,5610 a.u.
TGCGCAACAACTTTTCACGTGAGATTATGTCTAGAA,10500 a.u.
CTAACGAAGGTTTGCAATGTGGGTGACAAGCCAAGT,5310 a.u.
AAATTACTAAGTTGATGGGTGGGTGACGCCGTATGA,4140 a.u.
TAAACGAGAGAGATGGGCATGACAGTAGGTAGGGCA,4550 a.u.
TGGCAACAGAGAAAGCACGCTTGTAGAACCAACCTT,7240 a.u.
TTGGCTTAAATTTGTCACGTGAAGCTCTATTTTTTT,12300 a.u.
GTCTGCCGTTTGTTACATGTGGATGTGTTACTGAGT,10200 a.u.
CTTTCCCGATCTTATCACGTGTTTTTAGCACATTTG,15000 a.u.
TCCTTGCAGTACTATCACCTGCACCGGTTACCATCC,4970 a.u.
TACATTCCATTTTTGCACGTGTTGGGGTACAGAATC,19000 a.u.
CGACAGCTGCACCATCACGTGCCGATTGTCCTTATT,16800 a.u.

# Set 2 — method: RNA Bind-n-Seq; form: RNA; matrix: in vitro; concentration: 365 nM; relative to: no-protein control; direction: higher = stronger binding
# Target: RNA binding protein fox-1 homolog 2, RRM domain, GST-SBP tag (RBFOX2, Homo sapiens, UniProt O43251-10, residues 100-194)
# Setting: natural RNA segment, single round, ends assumed
# All sequences stand within: GGGAGUUCUACAGUCCGACGAUC … UGGAAUUCUCGGGUGCCAA
# Target sequence (chain): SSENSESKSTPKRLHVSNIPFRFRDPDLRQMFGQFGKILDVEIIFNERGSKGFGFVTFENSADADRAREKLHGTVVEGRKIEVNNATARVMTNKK
Sequence,RBNS enrichment (R)
UACGUGGUUGUCUGCUUUCCUAAGGACUCCCAUUUCCAGUAUUAAAGAGAGAAUCAUCAUCAAGGCACCGUAGGUAACUCAGUGGCUGUGACCAGCUCGACUGGCGGCCA,0.57
AGCUGGAGCCGUAAUUCCGUGCCUGCCGCCGCAGCGCCGCCGACAACGCGGGUGCAGGGGGGCGCGGCUGGGCGGUGCAGCUCCGCCCGGCUCCGCCCCUGCAGCCCACA,0.343
GUUUACCCGGAGAAUUUUUUUCUCCCCAUUUGUUUUGUUUUUACUCAAUGACACCAUUUUUAGUUUUAUUUCCUGAUAGCAAAAGGAAAAAAAACACCCAUCCCUCAAAA,1.26
CACAGGUGCCUGUGCACUUUGACGGUUAAUGCCACCAUGUAGGGAUUAUCGCGAGUGGUUGACCUUACACUUACUCCUUAAAUAGCAGUGAGUAAUGCAUUUGAGCUGUC,0.43
UUGUCGCAUGCUCUUCUUCUGUAUAGUUCUCAUCUUCCAAUUUUAUGGGAUUCAACAAAAGCCUAUUAUGCUUGUUUGCAUUAUGGUUACAAUAUUAAAAAGUGGAUUCA,4.96
AUCAAAUGAAACAUGAAAAAAACAGUGACUUUUAAGGUGAAAAGAGUUUCAAGCAUUCCAAAUAAAUUAUCAAUGUUUCAUAACUUUUUAUUAUAAACCCACCUCCUAAU,1.28
GUGCCUGCUAGCCAUUGUAUAAAAUUAAAACAUGAAGAAUAUUUGUUUUGAGCAUGGCUAGUGGAUUUACAACAACACAUGCCUGUCACUGCUGGAGUCAGACUUACAAA,0.365
GCCAGAAAAUUUCACUAGGUCAGUAAUUUAAACCUUGGAUCUUCAAAAAAUAAAAUAAUGUGAAGCAAAACCAACUAAAAAGUGAUUCUUGCACAUGAACUGUCACAUGU,0.555
AGACCUCAUCUCUAUCAAAAAAUAAAAAUUAGCUAGAUGUGGUGGCAUGAGCCUGUGUUCCCAGCUGCUUAGGAGGCUGAAGCAGGAGGAUUGAUUGAGCCUGCGAGGCC,4.66
CUACUUGUGACUUUCCAACCUGGUAACUUCCACUGAAUUCUGGAAAGAGAAAUUCUUGAGGACCCUGGCAAGUUGGGCCCUGACCUUUCUGUUGCUGUCUCUUGCUGGUG,0.301
ACACCCCAGCUCACACAGCAAAAACAAUGGACAGGCCCAGAGGCUGAAGCAAACAGUGUCCCUUCUGGCUGUGUUGGAGCCUCCCCAGUAACCACCUAUUUAUUUUACCU,0.9
GCAUGGUGGCUGGGUUGGUGAUAUACAGUGCAGCAGAGCUGCCCUCAGACGUGGGACUGCAGAGUCUGUUUGGAUUUGACACGGGGAGUCCUUGCUGACCUCCUGUCUCC,0.503

# Set 3 — method: aptamer microarray, sandwich; form: DNA with 2'F-ANA; matrix: in vitro; concentration: 200 nM; added: Cy3 exosite-II aptamer, 400 nM; direction: higher = stronger binding; sequence: GGTTGGTGTGGTTGG
# Target: Prothrombin, mature alpha-thrombin (F2, Homo sapiens, UniProt P00734)
# Setting: whole 15-mer aptamer, many near background
Modification,mean fluorescence intensity
2'F-ANA at 1 3 6 7 8 10 11 12 14 15,67.8 a.u.
2'F-ANA at 1 2 4 6 7 9 11 12,174 a.u.
2'F-ANA at 2 4 7 10 13 14,62.6 a.u.
2'F-ANA at 2 4 6 7 8 10 11 12 13 14,83.9 a.u.
2'F-ANA at 4 5 6 8 11 12 13 14 15,45.5 a.u.
2'F-ANA at 1 3 5 6 8 9 13 14,52.9 a.u.
2'F-ANA at 2 3 6 8 9 11 15,627 a.u.
2'F-ANA at 2 3 6 7 11 13,591 a.u.
2'F-ANA at 3 4 6 8 9 10 11 12 13 15,187 a.u.
2'F-ANA at 1 3 5 8 10 11 13,60.1 a.u.
2'F-ANA at 1 2 3 4 6 9 12 15,275 a.u.
2'F-ANA at 1 4 7 8 9 14,63.7 a.u.
2'F-ANA at 2 3 4 5 11 15,78.6 a.u.
2'F-ANA at 1 5 6 10 11 12 13 14 15,49.3 a.u.
2'F-ANA at 1 5 6 9 11,55.1 a.u.
2'F-ANA at 1 2 3 5 6 8 13 14 15,74 a.u.
2'F-ANA at 1 2 6 8 10 13 15,51.4 a.u.
2'F-ANA at 1 2 3 6 8 10 11 12 14,50.3 a.u.
2'F-ANA at 2 3 4 5 6 14 15,55.4 a.u.
2'F-ANA at 4 5 6 10 13,42.4 a.u.
2'F-ANA at 3 4 6 7 9 10 13 14,191 a.u.

# Set 4 — method: universal PBM; form: double-stranded DNA, one strand shown; matrix: in vitro; concentration: 600 nM; direction: higher = stronger binding
# Target: Sal-like protein 4, full length isoform A (SALL4, Homo sapiens, UniProt Q9UJQ4, residues 1-1053)
# Sequence of UniProt Q9UJQ4 (whole entry, looked up): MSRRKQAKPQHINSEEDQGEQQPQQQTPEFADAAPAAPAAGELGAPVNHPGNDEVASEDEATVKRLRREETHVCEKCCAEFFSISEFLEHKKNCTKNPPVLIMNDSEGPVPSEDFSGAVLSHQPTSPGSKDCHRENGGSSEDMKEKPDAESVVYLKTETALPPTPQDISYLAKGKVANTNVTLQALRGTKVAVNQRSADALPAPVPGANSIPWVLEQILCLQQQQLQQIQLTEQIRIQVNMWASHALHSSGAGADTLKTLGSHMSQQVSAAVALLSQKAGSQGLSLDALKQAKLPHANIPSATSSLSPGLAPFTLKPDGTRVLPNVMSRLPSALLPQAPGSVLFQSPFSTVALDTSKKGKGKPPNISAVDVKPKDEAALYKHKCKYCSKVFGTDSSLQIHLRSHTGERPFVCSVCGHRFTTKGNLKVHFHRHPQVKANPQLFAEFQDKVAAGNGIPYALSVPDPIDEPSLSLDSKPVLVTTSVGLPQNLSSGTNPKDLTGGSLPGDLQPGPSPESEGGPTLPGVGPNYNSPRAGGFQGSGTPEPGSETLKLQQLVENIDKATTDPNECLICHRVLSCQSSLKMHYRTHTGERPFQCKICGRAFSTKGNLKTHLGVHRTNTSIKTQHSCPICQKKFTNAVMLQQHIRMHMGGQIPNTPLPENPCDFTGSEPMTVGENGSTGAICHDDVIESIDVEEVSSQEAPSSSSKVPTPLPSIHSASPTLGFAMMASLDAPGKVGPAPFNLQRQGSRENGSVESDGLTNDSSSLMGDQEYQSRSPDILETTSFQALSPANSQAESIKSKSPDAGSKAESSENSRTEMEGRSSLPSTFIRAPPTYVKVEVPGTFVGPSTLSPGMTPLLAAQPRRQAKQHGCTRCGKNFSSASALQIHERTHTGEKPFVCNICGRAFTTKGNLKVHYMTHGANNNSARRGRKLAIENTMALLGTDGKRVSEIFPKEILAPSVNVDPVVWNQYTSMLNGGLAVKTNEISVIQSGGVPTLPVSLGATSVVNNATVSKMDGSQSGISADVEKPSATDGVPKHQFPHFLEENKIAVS
# Setting: 8-mer, flanks averaged, mean of replicates
Sequence,E-score
GGCCCAAC,-0.239
AGTCTTTG,0.128
AATTTCGT,0.251
CGCCCATC,-0.216
AAGTTCCT,-0.131
TTAGCGAA,0.0596
TACAATCA,0.169
CACCCCAA,-0.0698
AGGCCGTC,-0.332
AGTCACTG,-0.113
GAAACTCC,-0.347
GGGACAGA,-0.246
CCAATTCC,-0.07
AGCTCAGA,-0.151
AAACCCAG,-0.0771
CGGTTACC,-0.252
CCTGCAGA,-0.0464
GCCTTAGC,-0.139
ATCGCTGG,-0.157
ATCAAACG,0.136

# Set 5 — method: RNA Bind-n-Seq; form: RNA; matrix: in vitro; concentration: 200 nM; setting: whole 134-nt RNA, ends assumed; added: 150 mM LiCl; relative to: input library; direction: higher = stronger binding; library: 7-deaza-guanosine replaces G
# Target: Fragile X messenger ribonucleoprotein 1, C-terminal low-complexity region (Fmr1, Mus musculus, UniProt P35922)
# All sequences stand within: GGGAGUUCUACAGUCCGACGAUC … UGGAAUUCUCGGGUGUCAAGG
Sequence,log2 enrichment
AGUCCUGUGCUACACAUCGUAUGUACCGAAUCGGGGUUUUGGGUUUUGGGGUUUUGGAAAGUAUUAUGUUACGCCGUUCGGAUCUGCACU,-1.44
AAGUCCUGUGCUACACAUCGUAUGUACCGAAUCGGGAAAGGGUUUUUGGGAAAGGGAAAGUAUUAUGUUACGCCGUUCGGAUCUGCACUU,-1.5
AAGUCCUGUGCUACACAUCGUAUGUACCGAAUCGGAAAAAGGUUUUUUUGGUUUGGAAAGUAUUAUGUUACGCCGUUCGGAUCUGCACUU,-3.76
GCAGGAAGUAAAAACAAAUGGAAAUGCUUCGGAUAGUGGCAGGGGUGGGGGUUGCUAAGGAAAGGGUGGGAUGGAAGUGGGUAAAGAGUU,1.37
UCCUCAAGUCCUGUGCUACACAUCGUAUGUACCGAAUCGGUGGUUUGGUGGAAAGUAUUAUGUUACGCCGUUCGGAUCUGCACUUCCAGC,0.167
GCAGGAAGUAAAAACAAAUGGAGAUGCUUCGGAUAGUGGCAGGGGUGGGGGUUGCUAAGGAAAGGGUGGGAUGGGAGUGGGUAAAGAGUU,1.42
UAACUUUAGAGGAGGAUCUGAUGGAUAUGGCAGUGGACGUGGAUUUGGGGAUGGCUAUAAUGGGUAUGGCGGAGGACCUGGAGGUGGCAA,0.231
AAGUCCUGUGCUACACAUCGUAUGUACCGAAUCGGGGUUUUUGGGGUGGGGUGGGGAAAGUAUUAUGUUACGCCGUUCGGAUCUGCACUU,-1.1
UGGGAGGUGGAUUUUGUUUAUUUUUUUAGCUCAUUUCCAGGAGUGGGAAUUUUUUUUUAAUAUGUGUCAUGAAUAAAGUUGUUUUUGAAA,-0.118
AGUCCUGUGCUACACAUCGUAUGUACCGAAUCGGGGAAAGGGGAAAAAGGGGAGGGGAAAGUAUUAUGUUACGCCGUUCGGAUCUGCACU,0.0976
ACCAUGCAGGUGGGCAUCUUUGAGAAGUGGGGCAAGGGGGGGAUAGGGAGGGGGGUAACACUUUGGGAACAGGUGGUCCCAGGUCGUUUC,1.48

# For quick reference, copied from above (set 2):
Sequence,RBNS enrichment (R)
UACGUGGUUGUCUGCUUUCCUAAGGACUCCCAUUUCCAGUAUUAAAGAGAGAAUCAUCAUCAAGGCACCGUAGGUAACUCAGUGGCUGUGACCAGCUCGACUGGCGGCCA,0.57
AGCUGGAGCCGUAAUUCCGUGCCUGCCGCCGCAGCGCCGCCGACAACGCGGGUGCAGGGGGGCGCGGCUGGGCGGUGCAGCUCCGCCCGGCUCCGCCCCUGCAGCCCACA,0.343
GUUUACCCGGAGAAUUUUUUUCUCCCCAUUUGUUUUGUUUUUACUCAAUGACACCAUUUUUAGUUUUAUUUCCUGAUAGCAAAAGGAAAAAAAACACCCAUCCCUCAAAA,1.26
CACAGGUGCCUGUGCACUUUGACGGUUAAUGCCACCAUGUAGGGAUUAUCGCGAGUGGUUGACCUUACACUUACUCCUUAAAUAGCAGUGAGUAAUGCAUUUGAGCUGUC,0.43
UUGUCGCAUGCUCUUCUUCUGUAUAGUUCUCAUCUUCCAAUUUUAUGGGAUUCAACAAAAGCCUAUUAUGCUUGUUUGCAUUAUGGUUACAAUAUUAAAAAGUGGAUUCA,4.96
AUCAAAUGAAACAUGAAAAAAACAGUGACUUUUAAGGUGAAAAGAGUUUCAAGCAUUCCAAAUAAAUUAUCAAUGUUUCAUAACUUUUUAUUAUAAACCCACCUCCUAAU,1.28
GUGCCUGCUAGCCAUUGUAUAAAAUUAAAACAUGAAGAAUAUUUGUUUUGAGCAUGGCUAGUGGAUUUACAACAACACAUGCCUGUCACUGCUGGAGUCAGACUUACAAA,0.365
GCCAGAAAAUUUCACUAGGUCAGUAAUUUAAACCUUGGAUCUUCAAAAAAUAAAAUAAUGUGAAGCAAAACCAACUAAAAAGUGAUUCUUGCACAUGAACUGUCACAUGU,0.555
AGACCUCAUCUCUAUCAAAAAAUAAAAAUUAGCUAGAUGUGGUGGCAUGAGCCUGUGUUCCCAGCUGCUUAGGAGGCUGAAGCAGGAGGAUUGAUUGAGCCUGCGAGGCC,4.66
